Results gathered from unrelated publications.
Protocols differ between the studies behind these lines. Numbers after ± are the reported error.

`COc1ccc(NC(=O)CN(C)S(=O)(=O)c2cc(C)cc3cn[nH]c23)cc1Cl` gave a solubility of 18 µg/mL (aqueous buffer; pH 6.8).
For `CC(C)(N)CNC(=O)O[C@H]1CCCC2(C1)OOC1(O2)C2CC3CC(C2)CC1C3` (some centres unmarked), the solubility was 174 µM (PBS; pH 7.4).
For `O=C(N=P12CN3CN(CN(C3)C1)C2)c1cccc[c]1[Pd]([Br])([PH]12CN3CN(CN(C3)C1)C2)[PH]12CN3CN(CN(C3)C1)C2`, the solubility was 800 µM (water).
For `CC(C)C[C@@H](NC(=O)CCNc1ccc([N+](=O)[O-])c2nonc12)C(=O)N[C@H](CC(C)C)C(=O)N[C@H](CC(C)C)C(=O)N[C@H](CC(C)C)C(=O)N[C@H](Cc1ccc(OP(=O)(O)O)cc1)C(=O)O`, the solubility was at least 10000 µM (visual inspection; PBS).
`COc1ccc2c3c([nH]c2c1)CCN(C)CC3` gave a solubility of at least 40000 µg/mL (0.9% saline; fumarate salt).
With `CC(C)[C@]12O[C@H]1[C@@H]1O[C@]13[C@]1(O[C@H]1C[C@H]1c4c(C(=O)c5ccccc5)oc(OC(=O)c5ccccc5)c4CC[C@@]13C)[C@@H]2O` the solubility was at least 2000 µg/mL (emulsion formulation).
`CCCCCCCCCCCCCCCC(=O)Nc1nc2ccccc2c2c1ncn2CC(C)C` gave a solubility of 19000 µg/mL (oil or lipid).
For `CC(C)C[C@@H]1NC(=O)[C@H](C(C)C)N(C)C(=O)[C@@H](CC(C)C)NC(=O)[C@@H](Cc2ccccc2)NC(=O)[C@@H]([C@H](OCc2ccccc2)c2ccccc2)NC1=O`, the solubility was 7 µM.
The solubility of `O=P([O-])([O-])Oc1ccc(-c2cc(=S)ss2)cc1.[Na+].[Na+]` is reported as 1500 ± 149 µg/mL (HPLC; 0.9% NaCl; 1 h, pH 7.4, 25 °C).
`CC(NC(=O)NNS(=O)(=O)c1ccc(OC(F)F)cc1)(C(F)(F)F)C(F)(F)F` has a solubility of 18 µM (aqueous buffer).
For `O=C(CN1CCN(c2cc3c(cc2F)c(=O)c(C(=O)O)cn3C2CC2)CC1)Nc1ccc(Cl)cc1`, the solubility was 500 µg/mL (DPBS:Tween-80:ethanol 85:10:5).
`Cc1cnc(N)c(S(=O)(=O)N(C)CC(=O)Nc2ccn(C)c(=O)c2)c1` gave a solubility of over 97 µg/mL (aqueous buffer; pH 6.8).
For `CC[C@H](C)[C@H](NC(=O)[C@H](Cc1ccccc1)NC(=O)[C@H](CCCCN)NC(=O)[C@@H]1CCCN1)C(=O)N[C@@H](Cc1c[nH]cn1)C(=O)N[C@@H](Cc1ccc(O)cc1)C(=O)N[C@@H](CC(=O)O)C(=O)N[C@H](C(N)=O)[C@@H](C)O`, the solubility was under 40000 µg/mL.
For `O=C(NCc1ccco1)C1CCN(S(=O)(=O)c2ccc(Cl)cc2)CC1`, the solubility was 80 µM (pH 6.5).
`O=c1cc(-c2ccccc2)oc2c(Br)c(O)c(O)c(O)c12` gave a solubility of 6250 µg/mL (DMSO, PEG, ethanol, water vehicle; 10% DMSO, 35% PEG 400, 2% ethanol, 63% water).
`Cc1cnc(N)c(S(=O)(=O)N(C)CC(=O)Nc2ccc(C#N)c(Cl)c2)c1` gave a solubility of 0.15 µg/mL (aqueous buffer; pH 6.8).
The solubility of `CC(=O)CCC1C(=O)NC(C(C)C)C(=O)NC(Cc2cc(O)cc(F)c2)C(=O)N2CCCC(N2)C(=O)OC(C(C)=CC=CC(=O)N2CCCCO2)CC=CC=CC(O)C(C)C1O` (centres unmarked) is reported as 140 µM (PBS with 1% DMSO; 4 h, pH 7.4, room temperature).
`O=c1c2ccccc2[se]n1CCCn1[se]c2ccccc2c1=O` gave a solubility of 165 ± 6 µg/mL (5% Soluplus in water; 24 h, 25 °C, 50 mg/mL).
`Cc1cnc(N)c(S(=O)(=O)N(C)CC(=O)Nc2ccc(N3CCOCC3)c(Cl)c2)c1` has a solubility of 20 µg/mL (aqueous buffer; pH 6.8).
The solubility of `CC(=O)N[C@H]1CSCc2nc(CN=[N+]=[N-])nc(n2)CSC[C@@H](C(N)=O)NC(=O)[C@H](CC(N)=O)NC(=O)[C@H](CC(N)=O)NC(=O)[C@H](CC(C)C)NC(=O)[C@H](CC(C)C)NC(=O)[C@H](Cc2ccccc2)NC(=O)[C@H](C(C)C)NC(=O)[C@H](CC(=O)O)NC(=O)[C@H]([C@@H](C)O)NC(=O)[C@H](CCC(=O)O)NC(=O)[C@H](CC(N)=O)NC(=O)[C@H](CCC(=O)O)NC(=O)CNC(=O)[C@H](Cc2c[nH]c3ccccc23)NC(=O)[C@H]([C@@H](C)O)NC1=O` is reported as 9300 µg/mL (acetonitrile/water 1:1 with 0.1% TFA; crude cyclic peptide).
`Cc1cc(S(=O)(=O)N(C)CC(=O)Nc2ccn(C)c(=O)c2)c2[nH]ncc2c1` has a solubility of over 110 µg/mL (aqueous buffer; pH 6.8).
The solubility of `O=c1c2ccccc2[se]n1CCCCn1[se]c2ccccc2c1=O` is reported as 246 ± 9 µg/mL (10% Soluplus in water; 24 h, 25 °C, 100 mg/mL).
The solubility of `COc1ccc(NC(=O)CN(C)S(=O)(=O)c2cc(C)cnc2N)cn1` is reported as over 97 µg/mL (aqueous buffer; pH 6.8).
With `CCN(CC)CCOc1ccc(-c2nnn(Cc3ccc(OC)cc3)c2N)cc1` the solubility was at most 100 µM (extracellular solution, 0.3% DMSO; pH 6.9, soluble up to).
The solubility of `CSCC[C@H](NC(=O)[C@H](CCC(=O)O)NC(=O)[C@H](Cc1ccc(O)cc1)NC(=O)[C@@H](NC(=O)[C@H](CC(C)C)NC(=O)[C@H](CC(=O)O)NC(=O)[C@H](CC(C)C)NC(C)=O)[C@@H](C)O)C(=O)N[C@@H](CC(C)C)C(=O)N[C@@H](CO)C(=O)N[C@@H](CC(C)C)C(=O)N[C@@H](CCC(N)=O)C(=O)N[C@@]1(C)CCCC=CCCC[C@@](C)(C(=O)N[C@@H](CC(C)C)C(=O)N[C@@H](CC(N)=O)C(=O)N[C@@H](CCC(=O)O)C(=O)N[C@@H](CO)C(=O)N[C@@H](Cc2ccc(O)cc2)C(N)=O)NC(=O)[C@H](CCCCN)NC(=O)[C@H](C(C)C)NC(=O)[C@H](C(C)C)NC1=O` is reported as 6470 µg/mL (concentration not given, 24 (unit not given), pH 7.4).
For `CC(C)C[C@H](NC(=O)[C@H](CCCCN)NC(=O)[C@H](CCC(N)=O)NC(=O)[C@@H](N)Cc1c[nH]cn1)C(=O)N[C@H](C(=O)N[C@@H](CSSC[C@H](NC(=O)[C@@H](NC(=O)[C@H](CC(C)C)NC(=O)[C@H](CCCCN)NC(=O)[C@H](CCC(N)=O)NC(=O)[C@@H](N)Cc1c[nH]cn1)C(C)C)C(=O)N[C@@H](Cc1ccccc1)C(=O)N[C@@H](C)C(=O)N[C@@H](CCC(=O)O)C(=O)N[C@@H](CC(=O)O)C(=O)N[C@H](C(=O)O)C(C)C)C(=O)N[C@@H](Cc1ccccc1)C(=O)N[C@@H](C)C(=O)N[C@@H](CCC(=O)O)C(=O)N[C@@H](CC(=O)O)C(=O)N[C@H](C(=O)O)C(C)C)C(C)C`, the solubility was at least 500 µM (turbidity; 20 mM Tris-HCl buffer; pH 7.4).

Some of these lines once more:
The solubility of `O=c1c2ccccc2[se]n1CCCCn1[se]c2ccccc2c1=O` is reported as 246 ± 9 µg/mL (10% Soluplus in water; 24 h, 25 °C, 100 mg/mL).
`COc1ccc(NC(=O)CN(C)S(=O)(=O)c2cc(C)cc3cn[nH]c23)cc1Cl` gave a solubility of 18 µg/mL (aqueous buffer; pH 6.8).
